Experimental data collected from several papers.
Numbered parts are unrelated; each lists some results of a single study.
Sequence of UniProt Q5S007 (whole entry, looked up): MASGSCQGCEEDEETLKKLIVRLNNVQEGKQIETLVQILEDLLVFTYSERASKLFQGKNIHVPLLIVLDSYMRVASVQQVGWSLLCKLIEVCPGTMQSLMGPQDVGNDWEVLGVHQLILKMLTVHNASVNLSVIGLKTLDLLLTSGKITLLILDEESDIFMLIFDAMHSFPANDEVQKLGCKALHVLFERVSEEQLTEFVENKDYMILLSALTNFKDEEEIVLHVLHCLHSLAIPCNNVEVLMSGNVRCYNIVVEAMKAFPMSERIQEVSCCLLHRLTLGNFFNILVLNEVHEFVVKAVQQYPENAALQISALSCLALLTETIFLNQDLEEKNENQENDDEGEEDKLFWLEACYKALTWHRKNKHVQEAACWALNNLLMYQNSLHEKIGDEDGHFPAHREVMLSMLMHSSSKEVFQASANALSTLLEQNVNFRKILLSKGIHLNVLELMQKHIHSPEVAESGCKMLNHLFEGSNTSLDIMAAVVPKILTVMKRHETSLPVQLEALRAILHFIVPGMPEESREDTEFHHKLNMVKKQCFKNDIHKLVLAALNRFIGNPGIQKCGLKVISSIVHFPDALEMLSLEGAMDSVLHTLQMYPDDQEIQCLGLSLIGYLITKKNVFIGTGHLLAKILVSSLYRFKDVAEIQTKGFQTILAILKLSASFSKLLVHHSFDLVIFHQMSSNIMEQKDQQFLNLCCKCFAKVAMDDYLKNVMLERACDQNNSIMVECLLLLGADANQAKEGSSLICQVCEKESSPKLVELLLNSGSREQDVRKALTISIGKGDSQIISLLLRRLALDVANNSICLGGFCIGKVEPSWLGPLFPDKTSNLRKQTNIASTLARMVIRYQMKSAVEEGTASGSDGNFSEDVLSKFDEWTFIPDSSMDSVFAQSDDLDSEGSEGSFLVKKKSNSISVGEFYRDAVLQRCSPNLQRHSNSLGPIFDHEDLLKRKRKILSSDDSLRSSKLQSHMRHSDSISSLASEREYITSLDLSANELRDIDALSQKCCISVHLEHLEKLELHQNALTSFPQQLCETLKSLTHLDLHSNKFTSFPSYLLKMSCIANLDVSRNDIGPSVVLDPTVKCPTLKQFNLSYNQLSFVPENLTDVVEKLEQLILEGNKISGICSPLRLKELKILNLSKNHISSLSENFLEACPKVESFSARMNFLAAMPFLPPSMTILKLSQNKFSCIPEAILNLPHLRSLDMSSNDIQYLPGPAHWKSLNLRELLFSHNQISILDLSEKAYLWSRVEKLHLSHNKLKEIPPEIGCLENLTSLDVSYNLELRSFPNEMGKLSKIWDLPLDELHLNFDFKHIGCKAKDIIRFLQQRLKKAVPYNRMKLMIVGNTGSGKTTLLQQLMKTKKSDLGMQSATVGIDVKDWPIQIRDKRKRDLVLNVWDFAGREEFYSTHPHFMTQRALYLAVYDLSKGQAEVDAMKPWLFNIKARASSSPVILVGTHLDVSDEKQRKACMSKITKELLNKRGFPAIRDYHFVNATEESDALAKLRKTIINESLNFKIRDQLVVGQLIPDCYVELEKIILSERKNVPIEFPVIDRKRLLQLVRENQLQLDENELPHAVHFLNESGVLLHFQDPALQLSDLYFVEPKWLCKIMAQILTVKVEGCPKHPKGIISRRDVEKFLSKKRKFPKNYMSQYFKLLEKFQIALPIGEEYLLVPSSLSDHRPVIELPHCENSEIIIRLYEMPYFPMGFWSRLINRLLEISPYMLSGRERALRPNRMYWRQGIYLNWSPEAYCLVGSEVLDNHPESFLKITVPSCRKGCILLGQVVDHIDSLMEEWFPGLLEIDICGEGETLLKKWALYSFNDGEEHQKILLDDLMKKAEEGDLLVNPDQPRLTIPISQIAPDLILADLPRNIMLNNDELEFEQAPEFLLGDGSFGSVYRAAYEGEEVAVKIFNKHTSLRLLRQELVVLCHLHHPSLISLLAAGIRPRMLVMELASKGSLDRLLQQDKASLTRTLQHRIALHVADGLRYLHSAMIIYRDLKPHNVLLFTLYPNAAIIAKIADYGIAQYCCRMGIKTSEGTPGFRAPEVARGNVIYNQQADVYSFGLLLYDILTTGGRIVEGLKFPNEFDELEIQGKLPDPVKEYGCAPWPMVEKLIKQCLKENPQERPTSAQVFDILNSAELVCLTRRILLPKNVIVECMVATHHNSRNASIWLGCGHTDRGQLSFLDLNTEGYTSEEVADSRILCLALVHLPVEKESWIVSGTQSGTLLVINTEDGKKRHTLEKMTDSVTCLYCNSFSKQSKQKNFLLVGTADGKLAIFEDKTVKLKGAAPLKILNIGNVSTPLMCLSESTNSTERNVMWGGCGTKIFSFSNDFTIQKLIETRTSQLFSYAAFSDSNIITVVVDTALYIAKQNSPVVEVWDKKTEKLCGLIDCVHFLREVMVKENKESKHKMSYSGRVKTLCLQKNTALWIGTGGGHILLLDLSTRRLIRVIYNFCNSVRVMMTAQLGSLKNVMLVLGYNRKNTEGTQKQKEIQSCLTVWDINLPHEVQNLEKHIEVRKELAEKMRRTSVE

Study 1 — observed: ligand displacement; concentration: 10 µM
Target: Sigma non-opioid intracellular receptor 1 (SIGMAR1, Homo sapiens, UniProt Q99720)
Compound | inhibition
C[C@@H](c1cccc(C#N)c1)n1cc(Cl)cc(C(N)=O)c1=N | 17.4%
O=c1nc(-c2ccccn2)sc2ccccc12 | 14%
CO[C@H]1CC[C@H](CNc2ccc(S(=O)(=O)NC(=O)c3ccc(N4CCN(CC5=C(c6ccc(Cl)cc6)CC(C)(C)CC5)CC4)cc3Oc3cnc4[nH]ccc4c3)cc2[N+](=O)[O-])CC1 | 49.8%
O=C(NCCCC1CCCCC1)c1ccc(CNC(=O)c2cnn(-c3ccccc3)c2C(F)(F)F)cc1 | 20.1%
Cc1noc([C@H]2C[C@@H](c3ccc(C(F)(F)F)cc3)CN(C(=O)N3CCS(=O)(=O)C3)C2)n1 | -18.4%
Nc1nc(NCc2ccccc2)nc(-c2ccccc2CO)n1 | -0.41%
CN(C)C(=O)c1sc2nc(N3CCC(S(C)(=O)=O)CC3)cc(C(F)(F)F)c2c1N | 31.5%
N#CC1(c2ccccn2)CCN(Cc2cc(C(=O)N3CCCC3)c(=O)n3ccccc23)CC1 | 16.3%
C[C@@H]1CN(c2cc(-c3n[nH]c4ccc(OC5(C)CC5)cc34)ncn2)C[C@H](C)O1 | 35.9%
CCOc1ccc(S(=O)(=O)Nc2ccc(Cl)cc2C#Cc2cnc(C(=O)O)cc2OC)c2ncccc12 | -6.66%
Cc1ccc(-c2cnc([C@@]3(O)CC[C@H](C(=O)O)C(C)(C)C3)s2)cc1Nc1cccc(C(F)(F)F)n1 | -11.4%
c1ccc(N2CCN(Cc3nc4ccccc4[nH]3)CC2)nc1 | 58.6%
O=C(Nc1ccc(Oc2ccc(F)cc2)cc1)N1CCc2ncccc2[C@H]1c1ccc(F)cc1 | 73.4%
CNC(=O)Nc1ccc2c(c1)CC[C@]21OC(=O)N(CC(=O)N(Cc2ccc(F)cc2)[C@@H](C)C(F)(F)F)C1=O | 34.5%

Study 2 — method: protein-binding microarray; molecule type: double-stranded DNA, one strand shown; matrix: in vitro; concentration: not given; direction: higher = stronger binding
Target: Max-binding protein MNT, bHLH-zipper, MAX partner unstated (MNT, Homo sapiens, UniProt Q99583, residues 220-300)
Notes: k-mer, scored over probes, only values ≥0.25
Construct (chain): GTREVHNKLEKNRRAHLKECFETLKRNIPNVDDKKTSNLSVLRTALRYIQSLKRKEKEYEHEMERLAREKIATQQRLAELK
Oligonucleotide | E-score
AGTCGTGC | 0.263
CCGTACAC | 0.326
TCGTGACA | 0.254
ATGAGGGG | 0.253
ATTCCACG | 0.361
GTGTAGCA | 0.27
TCCATGCA | 0.266
GCGTGCTA | 0.427

Study 3 — host: human; matrix: microsomes or S9; concentration: 2 µM; time: 0.5 h
Compound | remaining compound [%]
CC(C(=O)O)n1ccc2c(cnc3ncnn32)c1=O (centres unmarked) | 75.3
CCOc1ccccc1NC(=O)c1cc2cc(C)ccc2[nH]1 | 44.7
CNC(=O)[C@@H]1C[C@H](Oc2ccccc2)CN1C1CCN(C(=O)NC(C)C)CC1 | 87.7

Study 4 — cell line: HaCaT; concentration: 100 µM; time: 18 h
Compound | viability [%]
COc1cc2nc(N(C)CCCNC(=O)C3CCCO3)nc(N)c2cc1OC (centres unmarked) | 92.2
N[C@@H](C(=O)N[C@@H]1C(=O)N2C(C(=O)O)=C(Cl)CS[C@H]12)c1ccccc1 | 108
Clc1ccc(C(Cn2ccnc2)OCc2ccsc2Cl)c(Cl)c1 (centres unmarked) | 15.8

Mixed results
Compound | target or system | assay | test system | setting | how to read | quantity | value
CC(C)Oc1ncc(-c2nc(-c3cccc4c3ccn4CCCC(=O)O)no2)cc1Cl | mouse MPNST tumor cells | high-content nuclear imaging, item: cell number | – | 10 µM, 12 h, mean of 2 replicates | relative to: plate mean, higher = more cells | nuclei count | 3.12 z-score
N=C(N)N/N=C/c1c(Cl)cccc1Cl | Plasmodium berghei | inhibitor | Huh-7, liver stage | 10 µM, 24 h | relative to: untreated control | infection rate | 74.5%
COc1cc(C(=O)N2CCC(N3CCN(C)CC3)CC2)ccc1Nc1ncc2c(n1)N(C)c1ccccc1C(=O)N2C | LRRK2 (Homo sapiens, UniProt Q5S007) | cell-free assay | – | 10 µM | – | remaining signal | 0%
CC(C)n1cnc(-c2ccc(F)cc2)c1-c1ncc(C(=O)Nc2ccc(N3CCN(C)CC3)cc2)[nH]1 | – | phase 2a trial | idiopathic pulmonary fibrosis patients | 30 mg once daily, grade 5 | – | patients with increased interferon-gamma | 0%

For quick reference, copied from above (study 2):
Oligonucleotide | E-score
ATTCCACG | 0.361
TCCATGCA | 0.266
